# Results of several laboratories.
# Parts stem from different laboratories: compare values within a part only.

# Sample 1 — technique: RNA Bind-n-Seq; form: RNA; matrix: in vitro; tested at: 200 nM; notes: whole 134-nt RNA, ends assumed; with: 150 mM LiCl; baseline: input library; reading: higher = stronger binding; each molecule: 7-deaza-guanosine replaces G
# Target: Ras GTPase-activating protein-binding protein 1, full length (G3BP1, Homo sapiens, UniProt Q13283)
# Sequence of UniProt Q13283 (whole entry, looked up): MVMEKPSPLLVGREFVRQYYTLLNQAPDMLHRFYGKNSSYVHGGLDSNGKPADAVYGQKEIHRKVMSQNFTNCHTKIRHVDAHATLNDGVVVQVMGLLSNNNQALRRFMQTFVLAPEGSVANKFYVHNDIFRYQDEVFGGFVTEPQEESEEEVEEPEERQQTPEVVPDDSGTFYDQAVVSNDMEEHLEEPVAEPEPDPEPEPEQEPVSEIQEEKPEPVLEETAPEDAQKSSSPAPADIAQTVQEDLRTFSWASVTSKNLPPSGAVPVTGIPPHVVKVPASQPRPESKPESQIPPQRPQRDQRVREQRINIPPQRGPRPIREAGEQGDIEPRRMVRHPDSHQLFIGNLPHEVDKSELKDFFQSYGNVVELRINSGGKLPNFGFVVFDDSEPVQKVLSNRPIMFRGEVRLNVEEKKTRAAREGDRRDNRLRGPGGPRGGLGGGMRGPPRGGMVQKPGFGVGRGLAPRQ
# All sequences stand within: GGGAGUUCUACAGUCCGACGAUC … UGGAAUUCUCGGGUGUCAAGG
Sequence,log2 enrichment
CAAGUCCUGUGCUACACAUCGUAUGUACCGAAUCGGGCCCCGGCCCCGGCCCCGGGAAAGUAUUAUGUUACGCCGUUCGGAUCUGCACUU,-0.967
UCCUGUGCUACACAUCGUAUGUACCGAAUCAAAUUUUUUUAAACCCCCCCAAAUUUAAAAAAGUAUUAUGUUACGCCGUUCGGAUCUGCA,0.806
GUCCUGUGCUACACAUCGUAUGUACCGAAUCGGGAAAAAGGGGAAAAAGGGGAAAAAGGAAAGUAUUAUGUUACGCCGUUCGGAUCUGCA,0.175
UCAAGUCCUGUGCUACACAUCGUAUGUACCGAAUCGGGUGGGAAAGGGUUUGGGAAAGUAUUAUGUUACGCCGUUCGGAUCUGCACUUCC,-1.45
UCAAGUCCUGUGCUACACAUCGUAUGUACCGAAUCGGGGUUUGGGUUUGGUUUGGAAAGUAUUAUGUUACGCCGUUCGGAUCUGCACUUC,-0.25
AGUCCUGUGCUACACAUCGUAUGUACCGAAUCGGGUUUUUGGGUUUUUGGUUUUUGGGAAAGUAUUAUGUUACGCCGUUCGGAUCUGCAC,-0.338
AGUCCUGUGCUACACAUCGUAUGUACCGAAUCGGGUUUUUGGUUUUUGGGUUUUUGGGAAAGUAUUAUGUUACGCCGUUCGGAUCUGCAC,-0.251
GCAGGAAGUAAAAACAAAUGGAAAUGCUUCGGAUAGUGGCAGGGGUGGGAAAUGCUAAGGAAAGGGUGGGAUGGGAGUGGGUAAAGAGUU,0.111

# Sample 2 — technique: RNA Bind-n-Seq; form: RNA; matrix: in vitro; tested at: not given; baseline: input RNA pool; reading: higher = stronger binding
# Target: RING finger protein unkempt homolog, zinc fingers 1-6, GST-SBP tag (UNK, Homo sapiens, UniProt Q9C0B0, residues 30-357)
# Notes: RNA with constant flanks, human and mouse sites, ends assumed
# All sequences stand within: GGGAGUUCUACAGUCCGACGAUC … CAACAGAGGAUUGAGCAUCA
# Construct (chain): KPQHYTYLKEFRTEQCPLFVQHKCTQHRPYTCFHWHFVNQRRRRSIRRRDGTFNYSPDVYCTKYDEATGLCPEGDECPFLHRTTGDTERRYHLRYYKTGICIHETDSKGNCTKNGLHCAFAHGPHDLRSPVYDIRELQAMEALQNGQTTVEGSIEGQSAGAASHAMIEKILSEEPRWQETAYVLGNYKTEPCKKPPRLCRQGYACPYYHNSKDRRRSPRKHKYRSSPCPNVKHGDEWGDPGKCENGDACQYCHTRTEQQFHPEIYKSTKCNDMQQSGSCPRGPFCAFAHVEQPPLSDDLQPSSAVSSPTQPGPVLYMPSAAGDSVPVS
Sequence,bound/input enrichment [ratio]
CACGGCAUCCUUUUGAGUUUGAUUUCAUUCCUGGCUUUGUACCUUGUCAUUUCUUCUUGCCCUUCCCACACGCAUCCCCUUCCCUCCGCUUGCCGCACAUGUACUCAGUGGUGCUGUGCU,0.327
CCCACUGCUAUUCAAGCUCAGGGCUGGCCAGUUGCUCUCAGUGGAUUGGAUAUGGUUGGAGUAGCUCAGACUGGAUCUGGGAAAACAUUAUCUUAUUUGCUGCCUGCCAUUGUACACAUA,0.377
CCUGCUCCCAAAUCAUGGGCCAGUAACAAGCAAGGUGGGCAAGGAGAUGGAAUCCAAGUGAAUAGUCAAUUUCAGCAGGAAUUUCCCAGUCUGCAGGCAGCUGGAGAUCAGGAAAAAAAA,0.151
CACUGCCCAGCUGGAGAACUGUCCAGUAUGGCCUGUUGACACCAUUCAGACCCCACAGGAGCGCUGUAUGUCCGUGCUCCUUUUCCCUUUUGGGCUGGUGCUGCCACUCAGCAAUAAUCC,0.12
GAGGUUACCCAUUUUUGUUUGCCUCAACUUCUUCCGUUACUUAAACAUACUACGUCAUACAUUCACGAAGUUUUUGAAUUUUAUGAAGAAAUUUUGACUUGUCGCUAUCCGUACUCCUGU,0.343
AGUUGUAGCUGCUGUCACUGACUCCCGGCUAUACAUGGCCUGUCGACCACGUUAUAGCCCUCAGGCCUGUUGAACUUGCUCUCUAAGAGAGGUUGGGACCAGGCUAGGUUCCGGGUGACG,0.0751
GCCUUAUAUAGCAACAUACUUGGUGAGGAAAACACCUACCUGUGGCGCACAUCACUGUAUUUAGCUUCUUCUGCCAGUGCUGAAUUCUUCGCUGACAUUGCCCUGGCUCCUAUGGAAGCU,0.3
GGAGGUGAAGAAGGCCCUGGAACUACAGAUGGAGAAUCACCGUGAGGCCCAUCACCGGCAGCUGGCCCGCCUCCGGGAUGAGAUUAAUGAGAAACAGAAAACCAUUGAUGAGCUGAAAGA,0.171

# Sample 3 — technique: protein binding microarray; form: double-stranded DNA, one strand shown; matrix: in vitro; tested at: not given; baseline: not given; reading: higher = stronger binding
# Target: Histone acetyltransferase KAT6A, winged helix 1, GST fusion (KAT6A, Homo sapiens, UniProt Q92794, residues 1-85)
# Notes: 8-mer, flanks averaged, mean of 2 arrays, mostly near background
# Residues (chain): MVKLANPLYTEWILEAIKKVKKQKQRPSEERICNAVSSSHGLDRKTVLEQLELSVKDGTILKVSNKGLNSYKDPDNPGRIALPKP
Sequence,E-score
ATGCCAGG,-0.164
CCCCACCA,-0.0987
CCATTGTA,-0.00428
AACAAAAC,-0.162
CGCGGTGA,0.325
GCGGGCCC,0.384
CGACTGAC,0.00106
AAGATTAA,-0.136
CTCCCGGA,0.0581
AATTGATG,-0.183
ACCCAAGG,0.00717
CAATCCGC,0.222
CGCAATTA,0.297
GCTGATCA,-0.00263
ACGACAGA,-0.104
CGCCTAAG,0.226
AGACTCCA,-0.255
AATTCCAA,-0.194
CAGTACAA,-0.2
CAAGAAAC,-0.0437
TGAATACA,-0.141

# Sample 4 — technique: RNA Bind-n-Seq; form: RNA; matrix: in vitro; tested at: 365 nM; baseline: no-protein control; reading: higher = stronger binding
# Target: RNA binding protein fox-1 homolog 2, RRM domain, GST-SBP tag (RBFOX2, Homo sapiens, UniProt O43251-10, residues 100-194)
# Notes: natural RNA segment, single round, ends assumed
# All sequences stand within: GGGAGUUCUACAGUCCGACGAUC … UGGAAUUCUCGGGUGCCAA
# Residues (chain): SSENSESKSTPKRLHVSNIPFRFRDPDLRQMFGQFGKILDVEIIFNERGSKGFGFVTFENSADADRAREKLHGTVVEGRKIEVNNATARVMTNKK
Sequence,RBNS enrichment (R)
AUUUUAUAUGUCUUGGAAAUUUAAUAAUUUAGUGUUCUCAGUAUCAAUUGGUGUUUUUGUUAAACGAAUGAAUCAUCUGUUCAUGCAUGCUCUACUUUGAUAUUAUAACC,0.668
AGUGGUAUGUAAAUGUUGACUCGGAUCACAAUCAUGUAGCAGAGGGCACUGGGCCUGUUGCCUGCCAGUCAUGGACACCCAUGUGAAAAAUCCUGAUUUCCAGCUCAUGG,3.07
CCUGCGCUCUGCCACUGUCCGGAAAUUCAUGGUUGGCUACGAAAUGCUUGCUCAGGCUCAGAGGGACCUCACCCCUGAGCAGGCUGCAGAGAGACUAAGGGCACUUCCUG,0.23
UUAUAGGCAAAGUAUCAAAUUGUCUUCUUAAUAUGAUAAACUGUGCUUUAUCAUUCUGAAAACUCAGGAUACAGCUUAUUCAUAGCAUUGUGGGUCUCUCCAGUAAGAAA,0.313
AGGAAUGCUUUUAGCAGAAAACAGGAAAGAAAAUAUCCCUUAAAAAUUUUUUUUGAAUGUGUGGAAGUAAUUUUAGUAUAAUUAGAUUUUUUCCAUAUUUUUGAAAGAUU,1.35
UUAGCUUUCUGUUAAAUACUUGCAGAAAAAAAAAAUAGCAAGUACAAUAUGACAGUAGUACAACAACCUGUGCCCAAAACACUGACAAGAAAUACAGAGUAAAGCUAAAA,0.328
CUGAUGGUUCAAGGGGAGGGGGGAUGUUGGCCAGGCCCCAGGGCACAGCCCUGACACAGGUGUGGCUACUGGAGGGGCCUUCAUACCUGCGGCCCCAAAGCCCCUGGGCU,0.498
GAACUCUGUGACUGCUUUGCCCACCAGUGUCAUCAUGUCAUUUGCCCUAAACACCUUGUAGUUGCUGAAGACAACUCAAGAGCAUCUAAGGGGAGUAUCUCUCACGACCC,0.365

# For quick reference, copied from above (sample 3):
Sequence,E-score
CAATCCGC,0.222
ATGCCAGG,-0.164
GCGGGCCC,0.384
AAGATTAA,-0.136
CCATTGTA,-0.00428
TGAATACA,-0.141
